Results gathered from unrelated publications.
Parts stem from different laboratories: compare values within a part only.
Chain of UniProt P10721 (whole entry, unmodified, looked up): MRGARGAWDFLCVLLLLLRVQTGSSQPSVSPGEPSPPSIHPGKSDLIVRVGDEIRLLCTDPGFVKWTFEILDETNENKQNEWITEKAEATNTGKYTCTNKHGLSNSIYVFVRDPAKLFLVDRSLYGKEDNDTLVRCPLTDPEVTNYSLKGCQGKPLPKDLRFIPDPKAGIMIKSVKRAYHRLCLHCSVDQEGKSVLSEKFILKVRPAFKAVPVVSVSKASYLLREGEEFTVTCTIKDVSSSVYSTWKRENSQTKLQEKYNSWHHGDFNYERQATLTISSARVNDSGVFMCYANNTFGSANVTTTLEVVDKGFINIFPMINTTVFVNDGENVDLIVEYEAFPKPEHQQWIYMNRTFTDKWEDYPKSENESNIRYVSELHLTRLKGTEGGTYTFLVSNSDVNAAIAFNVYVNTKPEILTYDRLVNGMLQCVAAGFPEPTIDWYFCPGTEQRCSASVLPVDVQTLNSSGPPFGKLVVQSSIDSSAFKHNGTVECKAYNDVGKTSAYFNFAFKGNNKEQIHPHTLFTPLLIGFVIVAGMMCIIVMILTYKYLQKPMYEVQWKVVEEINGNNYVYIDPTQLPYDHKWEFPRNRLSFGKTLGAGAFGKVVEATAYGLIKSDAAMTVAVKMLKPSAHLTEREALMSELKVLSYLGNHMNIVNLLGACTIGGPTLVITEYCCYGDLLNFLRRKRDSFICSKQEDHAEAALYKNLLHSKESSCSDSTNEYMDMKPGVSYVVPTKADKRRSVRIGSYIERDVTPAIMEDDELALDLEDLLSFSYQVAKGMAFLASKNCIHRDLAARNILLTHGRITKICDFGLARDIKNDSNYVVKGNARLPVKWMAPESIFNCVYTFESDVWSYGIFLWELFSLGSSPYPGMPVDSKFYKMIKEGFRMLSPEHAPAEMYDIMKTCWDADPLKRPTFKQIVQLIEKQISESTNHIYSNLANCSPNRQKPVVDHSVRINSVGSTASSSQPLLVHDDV
Chain of UniProt Q16620 (whole entry, looked up): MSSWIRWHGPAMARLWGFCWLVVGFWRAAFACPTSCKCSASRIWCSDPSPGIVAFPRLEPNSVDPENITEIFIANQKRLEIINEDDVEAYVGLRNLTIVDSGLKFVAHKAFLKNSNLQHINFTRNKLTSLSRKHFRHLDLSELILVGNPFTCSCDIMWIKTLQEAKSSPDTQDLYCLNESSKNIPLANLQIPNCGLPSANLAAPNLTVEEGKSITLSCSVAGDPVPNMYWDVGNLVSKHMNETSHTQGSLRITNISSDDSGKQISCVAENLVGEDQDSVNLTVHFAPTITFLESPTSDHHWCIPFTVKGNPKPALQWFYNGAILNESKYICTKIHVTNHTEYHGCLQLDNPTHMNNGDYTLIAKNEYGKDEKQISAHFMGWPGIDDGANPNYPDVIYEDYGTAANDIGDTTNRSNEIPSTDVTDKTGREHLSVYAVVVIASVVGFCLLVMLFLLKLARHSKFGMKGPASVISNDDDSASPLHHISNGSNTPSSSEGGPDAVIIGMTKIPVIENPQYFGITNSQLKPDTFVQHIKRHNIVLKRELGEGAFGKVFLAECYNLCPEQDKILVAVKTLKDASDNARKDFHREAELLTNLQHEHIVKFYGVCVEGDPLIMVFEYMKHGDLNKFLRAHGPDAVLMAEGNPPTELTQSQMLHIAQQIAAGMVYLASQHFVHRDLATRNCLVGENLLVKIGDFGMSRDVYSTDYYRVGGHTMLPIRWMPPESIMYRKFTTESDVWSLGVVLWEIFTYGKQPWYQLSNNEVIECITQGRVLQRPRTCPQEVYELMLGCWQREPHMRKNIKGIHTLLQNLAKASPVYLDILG
Chain of UniProt Q13464 (whole entry, looked up): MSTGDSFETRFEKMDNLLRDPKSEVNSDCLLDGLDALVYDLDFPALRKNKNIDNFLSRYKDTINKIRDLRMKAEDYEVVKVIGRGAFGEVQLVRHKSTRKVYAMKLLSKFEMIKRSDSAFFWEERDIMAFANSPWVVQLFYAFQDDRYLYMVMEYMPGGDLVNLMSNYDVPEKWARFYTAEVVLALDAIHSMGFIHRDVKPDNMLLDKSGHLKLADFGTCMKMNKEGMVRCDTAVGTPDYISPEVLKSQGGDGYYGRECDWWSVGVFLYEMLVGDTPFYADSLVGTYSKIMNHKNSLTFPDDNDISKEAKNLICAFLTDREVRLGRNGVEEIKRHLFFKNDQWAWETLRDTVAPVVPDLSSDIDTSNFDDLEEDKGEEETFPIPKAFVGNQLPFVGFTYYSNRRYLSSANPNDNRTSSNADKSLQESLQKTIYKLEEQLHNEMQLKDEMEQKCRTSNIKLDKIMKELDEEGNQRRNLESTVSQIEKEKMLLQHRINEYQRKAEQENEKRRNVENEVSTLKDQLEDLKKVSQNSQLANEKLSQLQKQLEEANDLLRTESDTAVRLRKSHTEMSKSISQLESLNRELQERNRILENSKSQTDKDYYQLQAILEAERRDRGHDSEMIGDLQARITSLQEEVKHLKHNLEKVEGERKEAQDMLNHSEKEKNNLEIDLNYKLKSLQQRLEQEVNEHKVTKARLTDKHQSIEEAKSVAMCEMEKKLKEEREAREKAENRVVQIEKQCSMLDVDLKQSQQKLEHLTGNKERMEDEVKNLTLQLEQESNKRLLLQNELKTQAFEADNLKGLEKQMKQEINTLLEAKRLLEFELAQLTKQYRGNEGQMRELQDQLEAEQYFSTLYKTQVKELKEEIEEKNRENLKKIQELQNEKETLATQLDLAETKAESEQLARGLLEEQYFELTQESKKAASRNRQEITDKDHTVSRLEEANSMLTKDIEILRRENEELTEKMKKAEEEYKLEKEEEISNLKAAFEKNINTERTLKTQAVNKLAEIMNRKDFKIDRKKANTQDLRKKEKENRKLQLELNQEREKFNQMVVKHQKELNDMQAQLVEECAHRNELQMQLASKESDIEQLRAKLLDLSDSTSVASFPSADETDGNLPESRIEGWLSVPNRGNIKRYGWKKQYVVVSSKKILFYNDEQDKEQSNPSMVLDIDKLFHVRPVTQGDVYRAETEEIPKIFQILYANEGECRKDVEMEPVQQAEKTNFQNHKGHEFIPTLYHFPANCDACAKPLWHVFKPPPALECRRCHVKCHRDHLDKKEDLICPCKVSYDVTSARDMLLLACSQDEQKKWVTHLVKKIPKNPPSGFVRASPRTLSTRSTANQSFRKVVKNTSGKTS
Chain of UniProt Q07912 (whole entry, looked up): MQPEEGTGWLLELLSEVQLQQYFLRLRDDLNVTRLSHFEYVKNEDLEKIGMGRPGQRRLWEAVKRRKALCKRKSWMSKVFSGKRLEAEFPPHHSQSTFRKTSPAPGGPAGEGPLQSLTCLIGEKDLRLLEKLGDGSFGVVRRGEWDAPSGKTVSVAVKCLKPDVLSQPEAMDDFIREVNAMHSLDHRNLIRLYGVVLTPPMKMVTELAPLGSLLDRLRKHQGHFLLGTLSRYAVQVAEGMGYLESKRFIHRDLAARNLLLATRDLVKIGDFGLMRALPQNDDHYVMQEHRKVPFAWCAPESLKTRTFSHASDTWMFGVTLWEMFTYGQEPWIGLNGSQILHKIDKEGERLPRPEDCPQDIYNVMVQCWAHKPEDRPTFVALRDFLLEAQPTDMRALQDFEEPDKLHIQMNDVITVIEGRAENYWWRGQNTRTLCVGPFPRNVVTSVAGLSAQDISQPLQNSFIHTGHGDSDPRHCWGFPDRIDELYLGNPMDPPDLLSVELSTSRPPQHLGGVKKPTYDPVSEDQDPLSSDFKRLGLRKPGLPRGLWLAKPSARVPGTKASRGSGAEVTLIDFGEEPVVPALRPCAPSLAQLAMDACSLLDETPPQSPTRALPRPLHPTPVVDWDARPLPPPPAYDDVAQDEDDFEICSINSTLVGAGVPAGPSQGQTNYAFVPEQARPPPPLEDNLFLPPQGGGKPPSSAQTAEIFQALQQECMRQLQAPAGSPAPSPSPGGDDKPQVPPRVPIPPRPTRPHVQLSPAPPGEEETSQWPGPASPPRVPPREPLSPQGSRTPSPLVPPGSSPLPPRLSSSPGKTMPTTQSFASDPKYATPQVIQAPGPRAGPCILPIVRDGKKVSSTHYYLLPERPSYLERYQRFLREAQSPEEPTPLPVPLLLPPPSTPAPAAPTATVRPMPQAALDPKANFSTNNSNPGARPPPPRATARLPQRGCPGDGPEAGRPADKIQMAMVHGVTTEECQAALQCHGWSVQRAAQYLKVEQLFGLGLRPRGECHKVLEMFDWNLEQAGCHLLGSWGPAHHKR

Study 1
Target: Ras GTPase-activating protein-binding protein 1, C-terminal RGG region (G3BP1, Homo sapiens, UniProt Q13283)
Chain of UniProt Q13283 (whole entry, looked up): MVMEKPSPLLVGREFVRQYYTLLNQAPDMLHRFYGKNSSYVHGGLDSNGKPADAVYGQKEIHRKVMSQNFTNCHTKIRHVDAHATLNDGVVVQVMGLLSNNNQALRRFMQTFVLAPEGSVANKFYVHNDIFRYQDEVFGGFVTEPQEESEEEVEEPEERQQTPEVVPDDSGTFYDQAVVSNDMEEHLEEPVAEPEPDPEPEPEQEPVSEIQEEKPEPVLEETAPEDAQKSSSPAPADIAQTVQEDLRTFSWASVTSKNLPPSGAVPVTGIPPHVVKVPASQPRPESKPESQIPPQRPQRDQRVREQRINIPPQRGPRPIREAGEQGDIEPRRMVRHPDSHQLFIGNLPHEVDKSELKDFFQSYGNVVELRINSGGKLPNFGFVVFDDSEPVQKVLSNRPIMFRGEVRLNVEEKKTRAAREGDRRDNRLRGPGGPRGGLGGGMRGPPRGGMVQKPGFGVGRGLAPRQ
Technique: RNA Bind-n-Seq
Molecule type: RNA
Matrix: in vitro
Tested at: 1 µM
Notes: whole 134-nt RNA, ends assumed
With: 150 mM KCl
Relative to: input library
Direction: higher = stronger binding
Shared flanks, not repeated: GGGAGUUCUACAGUCCGACGAUC … UGGAAUUCUCGGGUGUCAAGG
Oligonucleotide	log2 enrichment
UGGGAGGUGGAUUUUGUUUAUUUUUUUAGCUAAUUUCCAGGGGUGGGAAUUUUUUUUUAAUAUGUGUCAUGAAUAAAGUUGUUUUUGAAA	2.8
CUGUGCUACACAUCGUAUGUACCGAAUCGGGGAAAAAAGGGGAAAAAAGGGAAAAAAGGGGAAAGUAUUAUGUUACGCCGUUCGGAUCUG	-1.06
UGGCCCUGGUGGUAUGCGGGGAGGAAGAGGUGGCCUCAUGGAUCGUGGUGGUCCCGGUGGAAUGUUCAGAGGUGGCCGUGGUGGAGACAG	2.45
UCCUCAAGUCCUGUGCUACACAUCGUAUGUACCGAAUCGGAGGUUUGGUGGAAAGUAUUAUGUUACGCCGUUCGGAUCUGCACUUCCAGC	-1.24
UGUCCUGCAGGGUCGGACCGAUACCUGGAGAGCCGCGAUGCCUCUCGACUGAGUGGCCGGGACCCCUCCUCAUGGACAGUCGAGGAUGUG	-2.11
UGGGAGGUGGAUUUUGUUUAUUUUUUUAGCUCAUUUCCAGGGGUAGGAAUUUUUUUUUAAUAUGUGUCAUGAAUAAAGUUGUUUUUGAAA	2.69
GUCCUGUGCUACACAUCGUAUGUACCGAAUCGGGGUUUUUGGGGAAAGGGGUUUGGGGAAAGUAUUAUGUUACGCCGUUCGGAUCUGCAC	3.08
CCUGUGCUACACAUCGUAUGUACCGAAUCGGGGUUUUUUGGGGUUUUUUGGUUUUUUGGGAAAGUAUUAUGUUACGCCGUUCGGAUCUGC	-1.33

Study 2
SMILES: CC(=O)Nc1c(C(C)=O)c(=O)n(C)c2nc(-c3ccc(Cl)cc3Cl)c(-c3ccc(Cl)cc3)cc12
Read-out: cell-free assay
Technique: competition with immobilised ligand
Tested at: 1 µM
target	remaining binding [%]
Citron Rho-interacting kinase (CIT, Homo sapiens, UniProt O14578)	100
Mast/stem cell growth factor receptor Kit (KIT, Homo sapiens, UniProt P10721, L576P)	100
Serine/threonine-protein kinase NLK (NLK, Homo sapiens, UniProt Q9UBE8)	100
Phosphatidylinositol 4,5-bisphosphate 3-kinase catalytic subunit alpha isoform (PIK3CA, Homo sapiens, UniProt P42336, H1047Y)	100
BDNF/NT-3 growth factors receptor (NTRK2, Homo sapiens, UniProt Q16620)	100
Tyrosine-protein kinase ABL1, non-phosphorylated (ABL1, Homo sapiens, UniProt P00519, H396P)	100
Rho-associated protein kinase 1 (ROCK1, Homo sapiens, UniProt Q13464)	100
Mast/stem cell growth factor receptor Kit (KIT, Homo sapiens, UniProt P10721, T670I/V559D)	100
Tyrosine-protein kinase ABL1, non-phosphorylated (ABL1, Homo sapiens, UniProt P00519)	85
Homeodomain-interacting protein kinase 1 (HIPK1, Homo sapiens, UniProt Q86Z02)	99
Receptor-interacting serine/threonine-protein kinase 1 (RIPK1, Homo sapiens, UniProt Q13546)	100
Fibroblast growth factor receptor 4 (FGFR4, Homo sapiens, UniProt P22455)	100
Activated CDC42 kinase 1 (TNK2, Homo sapiens, UniProt Q07912)	100
Dual specificity tyrosine-phosphorylation-regulated kinase 1A (DYRK1A, Homo sapiens, UniProt Q13627)	100
Cytoplasmic tyrosine-protein kinase BMX (BMX, Homo sapiens, UniProt P51813)	100

Study 3
Target: POU domain, class 6, transcription factor 1, POU and homeodomain (POU6F1, Homo sapiens, UniProt Q14863, residues 311-611)
Technique: protein-binding microarray
Molecule type: hairpin DNA
Matrix: in vitro
Tested at: not given
Notes: whole hairpin DNA, median over replicate spots
Relative to: not given
Direction: higher = stronger binding
Shared flanks, not repeated: GAGGCC … GGCCTCACACTCTT
Construct (chain): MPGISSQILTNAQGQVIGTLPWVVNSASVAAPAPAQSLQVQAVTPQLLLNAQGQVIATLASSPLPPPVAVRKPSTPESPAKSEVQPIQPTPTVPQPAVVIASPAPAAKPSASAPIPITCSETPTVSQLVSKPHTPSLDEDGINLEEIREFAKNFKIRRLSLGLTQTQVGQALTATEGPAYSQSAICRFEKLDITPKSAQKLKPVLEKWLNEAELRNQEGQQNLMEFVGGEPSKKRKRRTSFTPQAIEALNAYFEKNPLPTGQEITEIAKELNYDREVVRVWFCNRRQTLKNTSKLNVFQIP
Oligonucleotide	median fluorescence
CGAATTAGGTGCCTCCTGGCACCTAATTCG (5mC at 7 35)	419 a.u.
ATCATTAGGTGCCTCCTGGCACCTAATGAT	630 a.u.
GTAATTAGGTGCCTCCTGGCACCTAATTAC (5mC at 36)	923 a.u.
CTAATGAGGTGCCTCCTGGCACCTCATTAG	1490 a.u.
ATAATTTGGTGCCTCCTGGCACCAAATTAT	607 a.u.
ATAATTAGGGGCCTCCTGGCCCCTAATTAT	1460 a.u.
ATAATTACGTGCCTCCTGGCACGTAATTAT (5mC at 14 28)	1020 a.u.
ATAATGATGTGCCTCCTGGCACATCATTAT	1180 a.u.

Further values, each from its own experiment
SMILES	test	test system	conditions	measurement	result
COc1cc(OC)cc(OC/C(=C\c2ccc(C(=O)O)cc2)CNc2cnc3ccccc3c2)c1		human, microsomes or S9	2 µM, 0.5 h	remaining compound	7.89%
CC(C)n1cnc(-c2ccc(F)cc2)c1-c1ncc(C(=O)Nc2ccc(N3CCN(C)CC3)cc2)[nH]1	phase 2a trial	idiopathic pulmonary fibrosis patients	oral, 30 mg once daily, blood/lymphatic disorders, grade 5	patients with TEAE	0%
COc1ccc(OC)c(NC(=O)c2ccc(N(C)S(=O)(=O)c3ccc(OC)c(OC)c3)cc2)c1		human, microsomes or S9	2 µM, 0.5 h	remaining compound	79.5%

Some of these lines once more (study 2):
target	remaining binding [%]
Serine/threonine-protein kinase NLK (NLK, Homo sapiens, UniProt Q9UBE8)	100
Phosphatidylinositol 4,5-bisphosphate 3-kinase catalytic subunit alpha isoform (PIK3CA, Homo sapiens, UniProt P42336, H1047Y)	100
BDNF/NT-3 growth factors receptor (NTRK2, Homo sapiens, UniProt Q16620)	100
Tyrosine-protein kinase ABL1, non-phosphorylated (ABL1, Homo sapiens, UniProt P00519, H396P)	100
Rho-associated protein kinase 1 (ROCK1, Homo sapiens, UniProt Q13464)	100
Mast/stem cell growth factor receptor Kit (KIT, Homo sapiens, UniProt P10721, T670I/V559D)	100
